Assay results pooled from the literature.
Parts stem from different laboratories: compare values within a part only. Positions count from the first letter of the parent shown.

Set 1
Target: ABI1, truncated, D143A, DHFR fusion (Arabidopsis thaliana)
Method: DHFR PCA, deep sequencing
Sample: yeast
Notes: methotrexate growth selection, single substitutions
Together with: (+)-ABA 1.4 µM
Relative to: wild-type fitted maximum
Direction: higher = stronger binding
Starting sequence: PYL1, truncated, DHFR fusion (Arabidopsis thaliana); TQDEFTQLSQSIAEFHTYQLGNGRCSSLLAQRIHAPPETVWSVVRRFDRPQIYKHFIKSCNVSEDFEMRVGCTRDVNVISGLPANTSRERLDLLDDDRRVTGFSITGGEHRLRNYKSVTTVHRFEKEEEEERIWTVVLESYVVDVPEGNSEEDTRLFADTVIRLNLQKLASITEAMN; partner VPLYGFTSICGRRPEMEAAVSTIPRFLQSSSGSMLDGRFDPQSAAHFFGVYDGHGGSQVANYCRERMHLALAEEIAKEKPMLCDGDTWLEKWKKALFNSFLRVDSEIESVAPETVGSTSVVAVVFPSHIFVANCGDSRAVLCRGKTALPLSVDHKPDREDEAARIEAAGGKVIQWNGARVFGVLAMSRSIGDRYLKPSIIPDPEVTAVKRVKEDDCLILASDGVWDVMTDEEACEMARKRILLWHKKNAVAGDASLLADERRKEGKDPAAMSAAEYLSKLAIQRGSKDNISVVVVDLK
| Change | relative binding score |
| --- | --- |
| G148A | 5.65% |
| V136L | 49.5% |
| Q31R | 25.3% |
| I105S | 7.55% |
| R74A | -2.19% |
| I33E | -3.24% |
| T101P | 3.61% |
| A84S | 21.8% |
| Y18V | 4.24% |
| L164G | 17.8% |
| Y53V | -0.363% |
| V143Y | -19.6% |
| E129A | 74.8% |
| E128P | 53.1% |
| I12W | 9.38% |
| T17L | -13.4% |

Set 2
Target: Interferon regulatory factor 7, full length, phosphomimetic (IRF7, Homo sapiens, UniProt Q92985, residues 1-503, S471D/S472D/S475D/S476D/S477D/S483D/S484D/S487D)
Method: protein-binding microarray
Molecule type: double-stranded DNA, one strand shown
Sample: in vitro
Tested at: 2200 nM top
Notes: 60-bp whole probe
Together with: salmon DNA 0.4 mg/ml
Relative to: random background probes
Direction: higher = stronger binding
All sequences stand within: GCCTAGCAC … GTCTTGATTCGCTTGACGCTGCTG
Construct (chain): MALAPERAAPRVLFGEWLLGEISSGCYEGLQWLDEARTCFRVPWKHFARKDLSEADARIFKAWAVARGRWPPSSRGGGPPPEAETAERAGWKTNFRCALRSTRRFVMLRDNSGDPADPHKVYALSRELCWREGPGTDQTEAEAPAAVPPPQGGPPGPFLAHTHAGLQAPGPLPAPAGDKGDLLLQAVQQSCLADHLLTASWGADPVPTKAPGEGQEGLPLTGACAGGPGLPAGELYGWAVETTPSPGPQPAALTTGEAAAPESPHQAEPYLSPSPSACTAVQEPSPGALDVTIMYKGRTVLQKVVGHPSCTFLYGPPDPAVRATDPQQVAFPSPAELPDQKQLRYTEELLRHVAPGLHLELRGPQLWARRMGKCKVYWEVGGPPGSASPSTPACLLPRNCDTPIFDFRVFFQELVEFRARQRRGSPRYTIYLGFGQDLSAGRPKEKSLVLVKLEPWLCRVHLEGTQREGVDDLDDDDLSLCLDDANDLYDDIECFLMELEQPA
| Oligonucleotide | fitted relative affinity [z-score] |
| --- | --- |
| GACGGTAGCCTTATCCTGACGTGCTAG | 0.204 |
| TGGCCTCTAGGTTTTCTGAAGTGCTAG | -0.216 |
| ACCATTCTCGGGACTCACCTGGTGCTA | 1.49 |
| TTAGGTATAGGTTTCGGTTAGTGCTAG | 5.28 |
| TCATATATAATATATATTACTGTGCTA | 0.335 |
| GACGGTCTGGGTCTCGGGACGTGCTAG | -0.572 |
| CTCTACCTCGTCATAGTAACGTGCTAG | 1.37 |
| GACGATCTCAGTATCGAAACGTGCTAG | 0.277 |
| GACGGACTGGACATTCGGGACGTGCTA | -0.0609 |
| TCAATTCTCCACTTGTGACTGTGCTAG | 1.41 |
| GACGGATCCCTTTTCCTGACGTGCTAG | 1.48 |
| GACGAACTGAGACTGTAGACGTGCTAG | -0.0138 |
| TTAGATATTAGTATCGATTAGTGCTAG | 0.182 |
| GACGGTTTCGAGTTTCGGGACGTGCTA | 8.19 |
| GACGAACTGGGTTATCGAGACGTGCTA | 0.0644 |
| TTAGGACTGCTCATCCTTTAGTGCTAG | 0.496 |
| GACGATCTCAGACTGGAGATGTGCTAG | -0.214 |
| TTAGAAATGAGTTTCGATTAGTGCTAG | 3.2 |
| GACGGTATCTGGTATCGGGACGTGCTA | 0.161 |
| TTAGGACTGCTTTTCCTTGAGTGCTAG | 0.622 |
| TTAGGACTGGACTCTGGGTTAGTGCTA | -0.645 |
| GACGAACTGAGTATCCAGACGTGCTAG | -0.0806 |
| GCCGATTTCGGGTATCGAGACGTGCTA | 3.57 |
| TTAGTTTTCGGGACTGGATTAGTGCTA | 3.44 |
| TTAGCACTGCTTATCCTTTAGTGCTAG | 0.613 |

Set 3
Target: Prothrombin, mature alpha-thrombin (F2, Homo sapiens, UniProt P00734)
Method: aptamer microarray, sandwich
Molecule type: DNA with 2'F-ANA
Sample: in vitro
Tested at: 200 nM
Notes: whole 15-mer aptamer, many near background
Together with: Cy3 exosite-II aptamer, 400 nM
Direction: higher = stronger binding
Oligonucleotide: GGTTGGTGTGGTTGG
| Modification | mean fluorescence intensity [a.u.] |
| --- | --- |
| 2'F-ANA at 4 5 6 7 8 13 | 62.5 |
| 2'F-ANA at 1 3 8 10 14 15 | 58.9 |
| 2'F-ANA at 1 3 5 6 7 9 11 13 14 | 48.6 |
| 2'F-ANA at 8 10 11 12 13 | 213 |
| 2'F-ANA at 4 12 13 15 | 423 |
| 2'F-ANA at 2 3 6 7 8 10 11 12 13 15 | 327 |
| 2'F-ANA at 1 5 6 8 9 10 12 13 | 46.5 |
| 2'F-ANA at 3 4 6 8 10 11 13 15 | 169 |
| 2'F-ANA at 2 3 4 8 9 11 12 13 | 611 |
| 2'F-ANA at 1 2 5 7 8 9 13 14 15 | 49.1 |
| 2'F-ANA at 1 8 9 10 14 15 | 47.6 |
| 2'F-ANA at 1 3 6 8 9 10 12 | 103 |
| 2'F-ANA at 1 5 7 8 11 12 13 14 15 | 46.2 |
| 2'F-ANA at 2 4 9 10 11 14 15 | 64.6 |
| 2'F-ANA at 3 4 5 6 10 12 14 15 | 48.5 |
| 2'F-ANA at 4 6 7 8 10 12 13 | 85.4 |
| 2'F-ANA at 1 4 7 10 14 15 | 44.5 |

Set 4
Target: CCND1, cyclin fold, Cln2 fusion (human)
Method: yeast growth competition, sequencing
Sample: yeast
Notes: strong parent motif
Relative to: not given
Direction: higher = stronger binding
Starting sequence: CDKN1A docking peptide (human); SKACRRLFGPVDS; partner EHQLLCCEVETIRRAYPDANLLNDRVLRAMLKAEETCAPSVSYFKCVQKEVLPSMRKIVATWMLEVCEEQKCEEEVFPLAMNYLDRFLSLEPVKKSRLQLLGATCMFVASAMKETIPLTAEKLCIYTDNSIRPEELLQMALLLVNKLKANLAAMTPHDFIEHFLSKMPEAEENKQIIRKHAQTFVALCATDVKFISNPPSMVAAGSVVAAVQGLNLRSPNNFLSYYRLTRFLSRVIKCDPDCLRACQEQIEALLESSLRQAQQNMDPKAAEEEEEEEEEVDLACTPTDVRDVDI
| Change | normalised enrichment score |
| --- | --- |
| SKACRRTFGPVDS [L7T] | 0.2 |
| SKACRRLFQPVDS [G9Q] | 2.97 |
| SKACERLFGPVDS [R5E] | 0.141 |
| SKAPRRLFGPVDS [C4P] | -0.0565 |
| SKACRRLFGPVCS [D12C] | 1.41 |
| SKMCRRLFGPVDS [A3M] | 0.568 |
| SKACRRLFGPVYS [D12Y] | 1.39 |
| SKARRRLFGPVDS [C4R] | 1.05 |
| SKACRRLFGPVVS [D12V] | 1.56 |
| SKACRRLFGPADS [V11A] | 3.72 |
| SKACRRLFGPQDS [V11Q] | 3.6 |

Set 5
Target: MAFF, bZIP domain (human)
Method: DHFR protein complementation
Sample: yeast
Notes: single substitutions, most at no-binding floor
Relative to: wild-type JUN-FOS pair
Direction: higher = stronger binding
Starting sequence: JUN, bZIP domain (human); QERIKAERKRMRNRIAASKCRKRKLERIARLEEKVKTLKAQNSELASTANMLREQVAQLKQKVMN; partner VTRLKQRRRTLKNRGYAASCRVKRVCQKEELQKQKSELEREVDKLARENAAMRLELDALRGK
| Change | binding fitness [natural log] |
| --- | --- |
| A29V | -1.33 |
| K36V | -1.51 |
| K39N | -1.62 |
| E54P | -1.46 |
| R53N | -1.52 |
| E44V | -1.28 |
| K34W | -1.48 |
| A46L | -1.51 |
| L31M | -1.34 |
| L31F | -1.31 |
| R30C | -1.42 |
| A49N | -1.35 |
| K36C | -1.5 |
| N42D | -1.48 |
| R30W | -1.36 |
| L31I | -1.55 |
| K36D | -1.43 |
| L52T | -1.54 |
| V35E | -1.44 |
| L38H | -1.43 |

Mixed results
Method: two-hybrid
Relative to: out of 4 tests
Direction: higher = firmer interaction
T1: itself; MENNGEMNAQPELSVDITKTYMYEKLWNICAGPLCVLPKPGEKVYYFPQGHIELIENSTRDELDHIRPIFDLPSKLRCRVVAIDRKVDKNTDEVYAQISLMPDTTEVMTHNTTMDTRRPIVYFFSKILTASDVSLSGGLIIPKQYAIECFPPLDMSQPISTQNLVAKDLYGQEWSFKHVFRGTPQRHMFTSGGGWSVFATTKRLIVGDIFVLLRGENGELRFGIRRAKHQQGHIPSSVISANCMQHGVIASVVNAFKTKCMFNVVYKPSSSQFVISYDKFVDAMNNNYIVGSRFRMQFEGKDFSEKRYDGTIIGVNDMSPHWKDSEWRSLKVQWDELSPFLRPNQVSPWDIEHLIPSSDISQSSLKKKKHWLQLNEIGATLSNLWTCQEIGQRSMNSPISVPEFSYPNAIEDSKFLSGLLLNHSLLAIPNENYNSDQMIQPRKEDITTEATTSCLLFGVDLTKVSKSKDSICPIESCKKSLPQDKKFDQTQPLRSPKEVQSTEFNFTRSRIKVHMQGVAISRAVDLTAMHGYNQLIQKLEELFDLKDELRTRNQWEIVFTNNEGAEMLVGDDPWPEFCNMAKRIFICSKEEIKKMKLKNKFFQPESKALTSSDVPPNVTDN
T2: itself; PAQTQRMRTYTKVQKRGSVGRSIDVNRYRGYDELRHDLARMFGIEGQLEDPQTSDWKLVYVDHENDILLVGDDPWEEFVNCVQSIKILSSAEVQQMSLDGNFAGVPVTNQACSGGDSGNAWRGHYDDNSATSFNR
T3: itself; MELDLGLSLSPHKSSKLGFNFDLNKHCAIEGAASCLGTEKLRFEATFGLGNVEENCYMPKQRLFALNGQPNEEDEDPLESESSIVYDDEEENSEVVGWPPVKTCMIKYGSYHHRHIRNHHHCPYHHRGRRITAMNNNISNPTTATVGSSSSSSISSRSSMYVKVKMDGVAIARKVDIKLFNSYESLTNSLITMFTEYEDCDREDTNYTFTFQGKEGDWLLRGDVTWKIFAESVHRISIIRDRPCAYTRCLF
B1: ARF13 (Arabidopsis thaliana, UniProt Q9FX25); chain MENNGEMNAQPELSVDITKTYMYEKLWNICAGPLCVLPKPGEKVYYFPQGHIELIENSTRDELDHIRPIFDLPSKLRCRVVAIDRKVDKNTDEVYAQISLMPDTTEVMTHNTTMDTRRPIVYFFSKILTASDVSLSGGLIIPKQYAIECFPPLDMSQPISTQNLVAKDLYGQEWSFKHVFRGTPQRHMFTSGGGWSVFATTKRLIVGDIFVLLRGENGELRFGIRRAKHQQGHIPSSVISANCMQHGVIASVVNAFKTKCMFNVVYKPSSSQFVISYDKFVDAMNNNYIVGSRFRMQFEGKDFSEKRYDGTIIGVNDMSPHWKDSEWRSLKVQWDELSPFLRPNQVSPWDIEHLIPSSDISQSSLKKKKHWLQLNEIGATLSNLWTCQEIGQRSMNSPISVPEFSYPNAIEDSKFLSGLLLNHSLLAIPNENYNSDQMIQPRKEDITTEATTSCLLFGVDLTKVSKSKDSICPIESCKKSLPQDKKFDQTQPLRSPKEVQSTEFNFTRSRIKVHMQGVAISRAVDLTAMHGYNQLIQKLEELFDLKDELRTRNQWEIVFTNNEGAEMLVGDDPWPEFCNMAKRIFICSKEEIKKMKLKNKFFQPESKALTSSDVPPNVTDN
B2: ARF7 1030-1164 (Arabidopsis thaliana, UniProt P93022); chain PAQTQRMRTYTKVQKRGSVGRSIDVNRYRGYDELRHDLARMFGIEGQLEDPQTSDWKLVYVDHENDILLVGDDPWEEFVNCVQSIKILSSAEVQQMSLDGNFAGVPVTNQACSGGDSGNAWRGHYDDNSATSFNR
B3: IAA29 (Arabidopsis thaliana, UniProt Q93WC4); chain MELDLGLSLSPHKSSKLGFNFDLNKHCAIEGAASCLGTEKLRFEATFGLGNVEENCYMPKQRLFALNGQPNEEDEDPLESESSIVYDDEEENSEVVGWPPVKTCMIKYGSYHHRHIRNHHHCPYHHRGRRITAMNNNISNPTTATVGSSSSSSISSRSSMYVKVKMDGVAIARKVDIKLFNSYESLTNSLITMFTEYEDCDREDTNYTFTFQGKEGDWLLRGDVTWKIFAESVHRISIIRDRPCAYTRCLF
| Molecule | partner | positive tests |
| --- | --- | --- |
| B1 (ARF13) | T1, itself | 0 |
| B2 (ARF7 1030-1164) | T2, itself | 0 |
| B3 (IAA29) | T3, itself | 0 |
